Measurements of several laboratories.
Numbered parts are unrelated; each lists some results of a single study.

Block 1
Target: Hepatocyte nuclear factor 3-beta, forkhead domain (FOXA2, Homo sapiens, UniProt Q9Y261, residues 142-269)
Method: protein-binding microarray
Form: double-stranded DNA, one strand shown
Matrix: in vitro
Tested at: not given
Notes: k-mer, scored over probes, only values ≥0.25
Direction: higher = stronger binding
Residues (chain): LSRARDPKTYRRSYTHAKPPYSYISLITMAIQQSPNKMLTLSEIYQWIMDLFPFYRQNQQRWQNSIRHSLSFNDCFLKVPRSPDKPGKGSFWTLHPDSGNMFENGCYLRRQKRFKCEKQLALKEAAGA
Oligonucleotide | E-score
TATTGTAA | 0.304
ATACACTC | 0.26
TACGATAA | 0.295
ACCATAAT | 0.304

Block 2
Target: Interferon regulatory factor 7, full length, phosphomimetic (IRF7, Homo sapiens, UniProt Q92985, residues 1-503, S101K/S471D/S472D/S475D/S476D/S477D/S483D/S484D/S487D)
Method: protein-binding microarray
Form: double-stranded DNA, one strand shown
Matrix: in vitro
Tested at: 250 nM
Notes: 60-bp whole probe
Added: salmon DNA 0.4 mg/ml
Reference: random background probes
Direction: higher = stronger binding
Shared flanks, not repeated: GCCTAGCACT … GTGCTAGTCTTGATTCGCTTGACGCTGCTG
Construct (chain): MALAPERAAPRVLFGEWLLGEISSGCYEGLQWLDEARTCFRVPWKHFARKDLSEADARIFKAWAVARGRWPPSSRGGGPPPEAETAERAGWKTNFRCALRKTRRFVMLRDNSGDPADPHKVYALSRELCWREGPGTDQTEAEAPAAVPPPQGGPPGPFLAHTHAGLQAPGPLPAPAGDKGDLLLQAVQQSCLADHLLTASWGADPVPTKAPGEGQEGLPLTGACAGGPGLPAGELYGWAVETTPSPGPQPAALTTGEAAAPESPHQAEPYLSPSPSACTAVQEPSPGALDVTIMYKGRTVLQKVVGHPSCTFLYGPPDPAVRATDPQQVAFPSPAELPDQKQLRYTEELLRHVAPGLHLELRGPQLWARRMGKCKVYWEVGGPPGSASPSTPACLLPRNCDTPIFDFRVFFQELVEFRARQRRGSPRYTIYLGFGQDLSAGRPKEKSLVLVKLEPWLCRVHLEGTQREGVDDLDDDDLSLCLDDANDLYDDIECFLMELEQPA
Oligonucleotide | log fluorescence [z-score]
TAGGATTCGACTATCGGTTA | 0.753
TATGTTTCGGGTATCGGTTA | 3.88
TAGAACTGGGGTATCGCTTA | -0.389
TAAAACTGGGGACTGGATTA | -0.36
CACTCCTATCTTATGATACT | 0.6

Block 3
Target: Histone acetyltransferase KAT6A, winged helix 1, GST fusion (KAT6A, Homo sapiens, UniProt Q92794, residues 1-85)
Method: protein binding microarray
Form: double-stranded DNA, one strand shown
Matrix: in vitro
Tested at: not given
Notes: 8-mer, flanks averaged, mean of 2 arrays, mostly near background
Reference: not given
Direction: higher = stronger binding
Target sequence (chain): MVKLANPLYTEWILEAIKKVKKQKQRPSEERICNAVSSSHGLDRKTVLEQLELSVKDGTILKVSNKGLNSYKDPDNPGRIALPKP
Oligonucleotide | E-score
GTTGTTCA | -0.0281
AAACATCA | -0.154
CCCCGAAC | 0.128
CTCTGCCC | -0.179
CCCTTACG | 0.0807

Mixed results
Molecule | target | test | test system | setting | scale | quantity | value
PhoQ, residues 284 288 289 292 302 303 SLGVVW | PhoP, residues 12 14 15 18 19 TPWLV (Escherichia coli, UniProt P23836) | Sort-seq, refers to: YFP reporter | E. coli | PhoQ-PhoP variant library, added: 10 µM Mg2+ | reference: high Mg2+ state, higher = stronger signaling | fold induction | 19.7

A few entries again (block 1):
Oligonucleotide | E-score
TACGATAA | 0.295
ACCATAAT | 0.304
